Published values pooled from the literature.
Parts stem from different laboratories: compare values within a part only. Positions count from the first letter of the parent shown.

Block 1
Target: Interferon regulatory factor 3, full length, phosphomimetic (IRF3, Homo sapiens, UniProt Q14653, residues 1-427, S386D/S396D/S398D/S402D/T404D/S405D)
Method: protein-binding microarray
Molecule type: double-stranded DNA, one strand shown
Sample: in vitro
Concentration: 2540 nM top
Setting: 60-bp whole probe
Together with: salmon DNA 0.4 mg/ml
Reference: random background probes
Direction: higher = stronger binding
Quantity: fitted relative affinity
Constant ends, left off below: GCCTAGCAC … GTCTTGATTCGCTTGACGCTGCTG
Target sequence (chain): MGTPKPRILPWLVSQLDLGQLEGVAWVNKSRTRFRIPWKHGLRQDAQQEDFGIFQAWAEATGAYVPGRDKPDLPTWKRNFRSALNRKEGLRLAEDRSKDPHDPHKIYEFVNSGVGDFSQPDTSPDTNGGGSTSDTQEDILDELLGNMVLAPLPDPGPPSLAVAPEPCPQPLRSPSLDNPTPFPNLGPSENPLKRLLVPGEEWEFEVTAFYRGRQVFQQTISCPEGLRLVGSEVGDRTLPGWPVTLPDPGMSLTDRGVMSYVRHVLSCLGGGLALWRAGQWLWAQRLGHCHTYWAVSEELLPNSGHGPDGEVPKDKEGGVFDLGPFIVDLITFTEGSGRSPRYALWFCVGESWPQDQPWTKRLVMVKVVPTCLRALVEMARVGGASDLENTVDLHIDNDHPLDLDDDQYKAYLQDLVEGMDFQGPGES
Strand = TTAGAACTGGGGACTGTATTAGTGCTA; value = -0.71 z-score
Strand = GACGGTTTTCTACTGCTGACGTGCTAG; value = 1.71 z-score
Strand = GACGGTTTCCTCCTCCTGACGTGCTAG; value = 4.91 z-score
Strand = TTAGATTTCAGACTGTATTAGTGCTAG; value = 0.858 z-score
Strand = TTCGGTCTCGGTATCGGTTAGTGCTAG; value = 2.94 z-score
Strand = TTAGGTCTCGGACTGGGCTAGTGCTAG; value = -0.466 z-score
Strand = TTAGGTTTCCTAATGCTTTAGTGCTAG; value = 6.18 z-score
Strand = TCAAAACTCACTCATGGCACTGTGCTA; value = -0.581 z-score

Block 2
Target: CCNB1, cyclin fold, Cln2 fusion (human)
Method: yeast growth competition, sequencing
Sample: yeast
Setting: weak parent motif
Reference: not given
Direction: higher = stronger binding
Quantity: normalised enrichment score
Starting sequence: SCAPER docking peptide (human); SNARRSLNFGGST
Substitution = SNARRELNFGGST [S6E]; value = -0.458
Substitution = SMARRSLNFGGST [N2M]; value = -0.406
Substitution = SNARRSLNRGGST [F9R]; value = 0.828
Substitution = SNARRSLNVGGST [F9V]; value = -0.0151
Substitution = SNARRSLNFGGSA [T13A]; value = 0.422

Block 3
Target: RING finger protein unkempt homolog, zinc fingers 1-6, GST-SBP tag (UNK, Homo sapiens, UniProt Q9C0B0, residues 30-357)
UniProt Q9C0B0, sequence (30-357, looked up): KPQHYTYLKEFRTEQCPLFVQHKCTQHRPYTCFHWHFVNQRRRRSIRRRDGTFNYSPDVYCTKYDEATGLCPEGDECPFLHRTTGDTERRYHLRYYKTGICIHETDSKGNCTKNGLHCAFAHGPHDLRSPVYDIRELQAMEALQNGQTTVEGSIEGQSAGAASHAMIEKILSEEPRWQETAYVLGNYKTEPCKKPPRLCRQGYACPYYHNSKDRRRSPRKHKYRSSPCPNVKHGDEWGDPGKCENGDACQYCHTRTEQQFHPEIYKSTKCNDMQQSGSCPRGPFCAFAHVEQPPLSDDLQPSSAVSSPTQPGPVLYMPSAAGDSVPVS
Method: RNA Bind-n-Seq
Molecule type: RNA
Sample: in vitro
Concentration: not given
Setting: RNA with constant flanks, human-mouse chimeric sites, ends assumed
Reference: input RNA pool
Direction: higher = stronger binding
Quantity: bound/input enrichment
Constant ends, left off below: GGGAGUUCUACAGUCCGACGAUC … CAACAGAGGAUUGAGCAUCA
Strand = AGAGAAAUGAGAAAGAAUCUUACACAAGAAGAGAUGCAAAGAAUGUCUACUAGAGUCCUUUUAGCCACUCUUUCCAUUCCUAUUACUCCUGAGCGAACUGAUAUUGCUCGACUUUUGGAU; value = 0.159 ratio
Strand = UGUGAACUGAAAGGUGUGAUCUAAAAACAAGAUGACUUUUCCUGGCACAUAUUCCAAAGCAAAGACUUUGUUGCCUGCUGCUUAUUGUCUAAUUUACAGGGAUAUUUAAUUUUGUCAGGU; value = 0.205 ratio
Strand = AGAUUCCCCCUCCUGAGACCUCCUCCGAAGUUGGAGUCUCUUAUAGAUGCCUCAUCCCCUGUUAGCGUUUUAGUUUGGACCACACAACCUUGGACAAUUCCCGCCAACCAGGCAAUUUGC; value = 2.43 ratio
Strand = GUAAUGGACGUUAAUACUGCUCUACAAGAGGUGCUGAAGACCGCCCUCAUCCACGAUGGCCUAGCACGUGGCAUACGCGAAGCUGCCAAAGCCUUAGACAAGCGCCAAGCCCAUCUUUGU; value = 0.124 ratio
Strand = UUUGUAUUCAUGUUAAGCACGCGUGCUGGUGGUCUGGGCAUCAAUCUUGCAACUGCUGAUGUAGUCAUUUUAUAUGACUCAGAUUGGAAUCCGCAAGUUGAUCUUCAGGCUAUGGACCGU; value = 0.146 ratio
Strand = ACCUCCCCCUCCCGCCUCACCCCACCCCCGCUUUUUGGAAAGUUUUUGGCGUUUCUUUUCCUUCCCCAGUUAGAAUUGUUUUUACCACCCCCGCAAGGGUCUAUCGAAGGGCUUGACGGA; value = 7.84 ratio
Strand = UCUGGUCACACUCGUGUGUAUGGUGUUUGCUUUGUGGAUACUUCACUGGGCAAGUUUUUCAUCGGCCAGUUUUCGGAUGACCGCCACUGUUCGAGAUUUAGGACGCUAGUGGCUCACUAU; value = 0.219 ratio
Strand = UCCCAAAUCCAGCAGCUAGAAGGAGCCUUGAGACAAAGCCUGGAAAUACAGGGAAGGCGAUAACAUUGUAAAUUGGUUUACAUUUUUUCCCCCUGUGGAUUUUUCUAGAGGUCAUAGUGC; value = 0.478 ratio

Single results of other studies
Substance = PhoQ, residues 284 288 289 292 302 303 SLANKL; target = PhoP, residues 12 14 15 18 19 NQFFI (Escherichia coli, UniProt P23836); test = Sort-seq, measured: YFP reporter; test system = E. coli; setting = PhoQ-PhoP variant library, together with: 10 µM Mg2+; scale = reference: high Mg2+ state, higher = stronger signaling; quantity = fold induction; value = 18.9

For quick reference, copied from above (block 1):
Strand = TTCGGTCTCGGTATCGGTTAGTGCTAG; value = 2.94 z-score
Strand = GACGGTTTCCTCCTCCTGACGTGCTAG; value = 4.91 z-score
Strand = TTAGAACTGGGGACTGTATTAGTGCTA; value = -0.71 z-score
